{"data": "Experimental data from different studies", "note": "Numbered parts are unrelated; each lists some results of a single study."}
{"data": "Series 1", "target": "Interferon regulatory factor 7, full length, phosphomimetic (IRF7, Homo sapiens, UniProt Q92985, residues 1-503, S471D/S472D/S475D/S476D/S477D/S483D/S484D/S487D)", "technique": "protein-binding microarray", "molecule type": "double-stranded DNA, one strand shown", "sample": "in vitro", "concentration": "2200 nM top", "notes": "60-bp whole probe", "added": "salmon DNA 0.4 mg/ml", "baseline": "random background probes", "reading": "higher = stronger binding", "all sequences stand within": "GCCTAGCAC … GTGCTAGGTCTTGATTCGCTTGACGCTGCTG", "sequence of UniProt Q92985 (whole entry, unmodified, looked up)": "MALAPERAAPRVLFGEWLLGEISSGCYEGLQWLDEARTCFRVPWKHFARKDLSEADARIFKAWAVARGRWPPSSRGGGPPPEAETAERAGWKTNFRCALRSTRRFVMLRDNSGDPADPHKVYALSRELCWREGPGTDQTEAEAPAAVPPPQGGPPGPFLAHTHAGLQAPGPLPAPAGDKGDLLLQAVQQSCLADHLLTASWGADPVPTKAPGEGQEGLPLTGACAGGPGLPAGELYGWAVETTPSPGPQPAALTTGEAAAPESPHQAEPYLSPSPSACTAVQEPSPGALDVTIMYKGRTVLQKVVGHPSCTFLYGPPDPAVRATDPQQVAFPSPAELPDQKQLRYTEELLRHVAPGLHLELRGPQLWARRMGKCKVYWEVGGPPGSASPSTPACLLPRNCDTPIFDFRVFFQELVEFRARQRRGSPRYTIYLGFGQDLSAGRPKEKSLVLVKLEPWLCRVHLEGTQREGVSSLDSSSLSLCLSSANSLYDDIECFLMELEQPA"}
{"Strand": "GACGGAATCCTTTTCCTGAC", "fitted relative affinity [z-score]": 0.912}
{"Strand": "GTCGAACTGAGTATCGAGAC", "fitted relative affinity [z-score]": 0.182}
{"Strand": "GTCGGTTTCGGACTGGGGAC", "fitted relative affinity [z-score]": 4.94}
{"Strand": "TTAGGCCTGCTACTGCTTTA", "fitted relative affinity [z-score]": -0.248}
{"Strand": "GACGGTTTCCTACTGGTGAC", "fitted relative affinity [z-score]": 1.6}
{"Strand": "TCATGTGTCTGATTATTACT", "fitted relative affinity [z-score]": 0.957}
{"Strand": "GGCGGTTTCCTTCTCCTGAC", "fitted relative affinity [z-score]": 2.39}
{"data": "Series 2", "target": "Histone acetyltransferase KAT6A, both winged helices, GST fusion (KAT6A, Homo sapiens, UniProt Q92794, residues 1-181)", "technique": "protein binding microarray", "molecule type": "double-stranded DNA, one strand shown", "sample": "in vitro", "concentration": "not given", "notes": "8-mer, flanks averaged, mean of 2 arrays, mostly near background", "baseline": "not given", "reading": "higher = stronger binding", "Construct (chain)": "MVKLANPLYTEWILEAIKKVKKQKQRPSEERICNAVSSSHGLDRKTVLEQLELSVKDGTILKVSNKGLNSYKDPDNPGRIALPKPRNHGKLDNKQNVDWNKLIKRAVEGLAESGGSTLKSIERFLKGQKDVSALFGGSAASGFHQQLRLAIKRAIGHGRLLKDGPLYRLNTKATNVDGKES"}
{"Strand": "CGACGGTC", "E-score": 0.224}
{"Strand": "GCATTAAA", "E-score": -0.0508}
{"Strand": "CCCGTTTC", "E-score": 0.181}
{"Strand": "TCCTGGAA", "E-score": -0.217}
{"Strand": "ACTACGTA", "E-score": 0.0321}
{"Strand": "ACAAGGGG", "E-score": -0.216}
{"Strand": "CTCTCTGA", "E-score": -0.0641}
{"data": "Series 3", "target": "RING finger protein unkempt homolog, zinc fingers 1-6, GST-SBP tag (UNK, Homo sapiens, UniProt Q9C0B0, residues 30-357)", "technique": "RNA Bind-n-Seq", "molecule type": "RNA", "sample": "in vitro", "concentration": "not given", "notes": "RNA with constant flanks, human and mouse sites, ends assumed", "baseline": "input RNA pool", "reading": "higher = stronger binding", "all sequences stand within": "GGGAGUUCUACAGUCCGACGAUC … CAACAGAGGAUUGAGCAUCA", "Target sequence (chain)": "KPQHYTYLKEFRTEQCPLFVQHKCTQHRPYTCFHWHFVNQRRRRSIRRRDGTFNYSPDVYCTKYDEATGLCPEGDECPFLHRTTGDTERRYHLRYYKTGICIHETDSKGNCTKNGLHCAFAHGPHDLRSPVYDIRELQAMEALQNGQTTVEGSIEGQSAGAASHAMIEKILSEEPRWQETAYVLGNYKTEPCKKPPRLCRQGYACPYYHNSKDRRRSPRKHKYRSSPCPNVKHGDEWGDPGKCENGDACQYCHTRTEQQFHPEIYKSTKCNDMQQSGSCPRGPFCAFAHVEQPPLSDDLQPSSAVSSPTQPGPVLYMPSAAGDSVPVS"}
{"Strand": "UCCACACAACAGGUGAAGAACAAGCUCAUUGAGAACACGGAUGCAGCCUGCAAAUAUGGGGCCUUUGGGCUACCCACCACUGUUGCCCAUGUGGAUGGUAAAACCUACAUGUUAUUUGGG", "bound/input enrichment [ratio]": 0.037}
{"Strand": "AUAAAGACUGAAAACAAGGUCCUGAACAAAGUCAUCACUGUUUAUGCGGCACUUUGUUGCGAGAUCAAGAAAUUAAAAUAUGAGGCAGAAACUAAGUUUUACAAUGGUCUUCUGUUUUAU", "bound/input enrichment [ratio]": 0.381}
{"Strand": "CACGAAACAACCAAAAUGGUAAAGUAAUUCAGAGCGAGGAACGUUUGUUAUAAUUUCUUUCUUUUCAUACCCCCUCACAGUGGAAAAUGCUUCAUUCAUUGGAGGGUCCUGAGAUAGCCC", "bound/input enrichment [ratio]": 0.186}
{"Strand": "AUUGAAAAUAUUCAAAGACUAGAUUUGACACCCGCAACUGCUAUUAAAUUAAAUAAAUACCUCUUGAGUCUCUGUACCAGUUAUCUCAAGUCUGAAGCCUGUAGUUGUCGAAUCCCAGUU", "bound/input enrichment [ratio]": 0.635}
{"Strand": "UUUGCAAAUUAUAUUGCCAGAGACACACGUCGCCUUGGCGCAACAAUACUAGACCGUAUACAUAGUCUUCAAAUUAAUAGCAGUUUGAGCACCUACUCUCUCGUAGACUCUGUUGGAAAU", "bound/input enrichment [ratio]": 6.26}
{"data": "Single results of other studies"}
{"Substance": "PhoQ, residues 284 288 289 292 302 303 GLASVI", "target": "PhoP, residues 12 14 15 18 19 AWHSL (Escherichia coli, UniProt P23836)", "assay": "Sort-seq, refers to: YFP reporter", "test system": "E. coli", "conditions": "PhoQ-PhoP variant library, added: 10 µM Mg2+", "scale": "baseline: high Mg2+ state, higher = stronger signaling", "quantity": "fold induction", "result": 8.15}
{"note": "Repeated from above (series 3):"}
{"Strand": "CACGAAACAACCAAAAUGGUAAAGUAAUUCAGAGCGAGGAACGUUUGUUAUAAUUUCUUUCUUUUCAUACCCCCUCACAGUGGAAAAUGCUUCAUUCAUUGGAGGGUCCUGAGAUAGCCC", "bound/input enrichment [ratio]": 0.186}
{"Strand": "AUUGAAAAUAUUCAAAGACUAGAUUUGACACCCGCAACUGCUAUUAAAUUAAAUAAAUACCUCUUGAGUCUCUGUACCAGUUAUCUCAAGUCUGAAGCCUGUAGUUGUCGAAUCCCAGUU", "bound/input enrichment [ratio]": 0.635}
{"Strand": "UUUGCAAAUUAUAUUGCCAGAGACACACGUCGCCUUGGCGCAACAAUACUAGACCGUAUACAUAGUCUUCAAAUUAAUAGCAGUUUGAGCACCUACUCUCUCGUAGACUCUGUUGGAAAU", "bound/input enrichment [ratio]": 6.26}
